Experimental data collected from several papers.
pEC50, pIC50: −log10 of the molar value. In brackets after ≈: the same amount, converted by molar mass.

| SMILES | organism | assay | test system | setting | scale | quantity | result |
| --- | --- | --- | --- | --- | --- | --- | --- |
| CN1CC(=O)N=C1N.C[C@H](CCC(=O)O)[C@H]1CC[C@H]2[C@@H]3[C@@H](O)C[C@@H]4C[C@H](O)CC[C@]4(C)[C@H]3CC[C@]12C | Salmonella enterica Typhimurium | – | TISTR 1470 | 1 mg per disc, 18 to 24 h, 37 °C, 6 mm disc | – | inhibition zone | inactive |
| CC[C@H](C)[C@H](NC(=O)[C@H](CCCCN)NC(=O)[C@H](CCCCN)NC(=O)[C@H](C)NC(=O)[C@@H](NC(=O)[C@H](C)NC(=O)[C@H](CC(C)C)NC(=O)[C@H](CC(C)C)NC(=O)[C@H](C)NC(=O)[C@H](CCCCN)NC(=O)[C@H](CC(C)C)NC(=O)[C@H](CC(N)=O)NC(=O)[C@@H](N)CC(C)C)C(C)C)C(=O)N[C@@H](CC(C)C)C(N)=O | Staphylococcus aureus and Pseudomonas aeruginosa | biofilm formation | – | – | – | maximum MBIC | 32 µM |
| COc1c(CNC(=O)c2cc(C3CC3)nn2C)cccc1OC(F)(F)F | human respiratory syncytial virus | viral replication | HEp-2, A-2 | – | – | pEC50 | > 7.60 |
| O=C(NC12CC3CC(CC(C3)C1)C2)c1cc2cc(Cl)ccc2[nH]1 | Streptococcus pyogenes | microbial growth, broth dilution | 1308007P | – | – | MIC | > 64 µM |
| CC(=O)[O-].O.O.[O-]c1ccc(Br)cc1C=NCCN1CCOCC1.[Zn+2] | Salmonella enterica | – | serovar Typhi | 20 µL of 100 µM per disc | – | inhibition zone diameter | 24 mm |
| O=C1/C(=N\NC(=S)NN=Cc2cccs2)c2ccccc2N1Cc1ccccc1 | influenza B virus | viral cytopathogenicity, MTS | MDCK | – | – | pEC50 | < 5.40 |
| c1cc2c(s1)CCOC21CCN(Cc2ccc3c(c2)OCCO3)CC1 | Streptococcus pyogenes | microbial growth, broth dilution | 1308007P | – | – | MIC | 16 µM (≈ 5.72 µg/mL) |
| CCCCCCCCCC(=O)OCC1OC(n2cc(C)c(=O)[nH]c2=O)CC1N(C)C (stereo not drawn) | influenza B virus | viral cytopathic effect | MDCK | – | – | pEC50 | < 6.64 |
| Cc1ccc2nc(C)c(C(=O)NCc3cccs3)n2c1 | Streptococcus pyogenes | microbial growth, broth dilution | 1308007P | – | – | MIC | > 64 µM |
| CC(C)C1=C[C@@]23CC[C@@H]4[C@](C)(CCC[C@@]4(C)C(=O)NCC#CCN4CCCNCC4)[C@H]2C[C@@H]1C1=C3C(=O)C=CC1=O | influenza A virus A/Puerto Rico/8/34 (H1N1) | – | MDCK | concentration not given | baseline: compound over oseltamivir | relative antiviral activity | 34 |
| CNc1nc(SC)nc2ccccc12 | Streptococcus pyogenes | microbial growth, broth dilution | 1308007P | – | – | MIC | > 64 µM |
| O=C(Cn1ccc(=O)c2ccccc21)N/N=C/c1cc(Br)c(O)c(Br)c1 | Fusarium graminearum | microbial growth | – | 50 µg/mL | – | inhibition | 19% |
| COc1cc(O)cc(O)c1C(=O)/C=C/c1ccccc1 | VSV-pseudotyped HIV-1 | viral replication | MT-2 | 48 h | – | pIC50 | 4.15 |
| COc1cc(-c2oc3cc(O[C@@H]4O[C@@H](C)[C@H](O)[C@@H](O)[C@H]4O)cc(O)c3c(=O)c2O[C@@H]2O[C@H](CO[C@@H]3O[C@@H](C)[C@H](O)[C@@H](O)[C@H]3O)[C@@H](O)[C@H](OC(C)=O)[C@H]2O)ccc1O | influenza virus | viral replication | MDCK | – | – | pEC50 | 5.89 to 5.92 |
| CN1CC(=O)N=C1N.C[C@H](CCC(=O)O)[C@H]1CC[C@H]2[C@@H]3CC[C@@H]4C[C@H](O)CC[C@]4(C)[C@H]3CC[C@]12C | Salmonella enterica Typhimurium | – | TISTR 1470 | 1 mg per disc, 18 to 24 h, 37 °C, 6 mm disc | – | inhibition zone | inactive |
| CS(=O)(=O)c1ccc(/C=N/NC(=O)Cn2ccc(=O)c3ccccc32)cc1 | Fusarium graminearum | microbial growth | – | 50 µg/mL | – | inhibition | 7.1% |
| CC(C)C1=C[C@@]23CC[C@@H]4[C@](C)(CCC[C@@]4(C)C(=O)OCC#CCN4CCCC4)[C@H]2C[C@@H]1[C@H]1C(=O)CCC(=O)[C@H]13 | influenza A virus A/Puerto Rico/8/34 (H1N1) | – | MDCK | concentration not given | baseline: compound over oseltamivir | relative antiviral activity | 13 |
| CON(C(=O)c1cn(C)nc1C(F)F)C(C)Cc1c(Cl)cc(Cl)cc1Cl (stereo not drawn) | Fusarium pseudograminearum | – | – | 1.56 µg/mL | – | inhibition | 84.7% |
| COC(=O)C1NC(=O)C2NC(=O)C(NC(=O)C3NC(=O)C4NC(=O)C(NC(=O)C(Nc5c(NCC(=O)NCC(=O)NCC(=O)O)c(=O)c5=O)c5ccc(O)c(c5)Oc5cc4cc(O)c5C)C(O)c4ccc(cc4)Oc4cc3cc(c4O)Oc3ccc(cc3)C2O)c2ccc(O)c(c2)-c2c(O)cc(O)cc21 (stereo not drawn) | influenza virus | viral replication | – | – | – | pEC50 | 5.30 |
| Cc1cccc(-c2nc(Nc3ccncn3)c3c(C)csc3n2)n1 | Streptococcus pyogenes | microbial growth, broth dilution | 1308007P | – | – | MIC | 16 µM (≈ 5.35 µg/mL) |
| CC[C@H](C)[C@H](NC(=O)[C@H](CC(C)C)NC(=O)CNC(=O)[C@H](CCCCN)NC(=O)[C@@H](NC(=O)[C@@H](NC(=O)[C@H](CC(N)=O)NC(=O)[C@H](Cc1c[nH]c2ccccc12)NC(=O)[C@@H](NC(=O)[C@H](CCC(=O)O)NC(=O)CNC(=O)[C@H](Cc1c[nH]c2ccccc12)NC(=O)[C@@H](N)CC(C)C)[C@@H](C)CC)[C@@H](C)O)C(C)C)C(N)=O | Herpes simplex virus 1 | virus inactivation, plaque reduction | Vero, F | 37 °C | – | IC50 | 2.48 µg/mL |
| COC(=O)C1NC(=O)C2NC(=O)C(NC(=O)C3NC(=O)C4NC(=O)C(NC(=O)C(Nc5c(OC)c(=O)c5=O)c5ccc(O)c(c5)Oc5cc4cc(O)c5C)C(O)c4ccc(cc4)Oc4cc3cc(c4O)Oc3ccc(cc3)C2O)c2ccc(O)c(c2)-c2c(O)cc(O)cc21 (stereo not drawn) | influenza virus | viral replication | – | – | – | pEC50 | 5.62 |
| CC(CCC(=O)[O-])C1CCC2C3C(O)CC4CC(O)CCC4(C)C3CCC12C.C[N+](C)(C)CC(O)CC(=O)O (stereo not drawn) | Salmonella enterica Typhimurium | – | TISTR 1470 | 1 mg per disc, 18 to 24 h, 37 °C, 6 mm disc | – | inhibition zone | inactive |
| Cc1cc(Oc2nc(N3CC[C@@H](c4ccncc4)C3)ncc2F)[nH]n1 | Mycobacterium tuberculosis | – | THP-1, H37Rv non-replicating | 96 h, end of hypoxic incubation | – | pIC50 | 4.52 |

For quick reference, copied from above:
| SMILES | organism | assay | test system | setting | scale | quantity | result |
| --- | --- | --- | --- | --- | --- | --- | --- |
| CON(C(=O)c1cn(C)nc1C(F)F)C(C)Cc1c(Cl)cc(Cl)cc1Cl (stereo not drawn) | Fusarium pseudograminearum | – | – | 1.56 µg/mL | – | inhibition | 84.7% |
